Experimental data from different studies.
Every numbered part comes from another study and shows a few of its results, in no order. Positions count from the first letter of the parent shown.

Series 1
Target: CCND1, cyclin fold, Cln2 fusion (human)
Technique: yeast growth competition, sequencing
Matrix: yeast
Notes: strong parent motif
Relative to: not given
Reading: higher = stronger binding
Starting sequence: RBL1 docking peptide (human); GSAKRRLFGEDPP; partner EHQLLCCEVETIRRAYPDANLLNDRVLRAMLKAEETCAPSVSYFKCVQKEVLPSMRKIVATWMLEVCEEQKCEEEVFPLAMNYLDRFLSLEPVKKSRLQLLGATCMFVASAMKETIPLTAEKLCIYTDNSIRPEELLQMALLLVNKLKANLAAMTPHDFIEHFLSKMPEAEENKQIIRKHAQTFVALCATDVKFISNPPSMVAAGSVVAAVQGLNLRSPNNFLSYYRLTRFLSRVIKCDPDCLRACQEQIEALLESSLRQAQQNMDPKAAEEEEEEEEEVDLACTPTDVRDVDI
Under “normalised enrichment score”, `GSADRRLFGEDPP [K4D]` is recorded as 1.23.
For `GSAKRRLFGEDPQ [P13Q]`, “normalised enrichment score” read 1.3.
Under “normalised enrichment score”, `GSAARRLFGEDPP [K4A]` is recorded as 2.06.
`GSAKRRLFGHDPP [E10H]`: “normalised enrichment score” 1.11.
Under “normalised enrichment score”, `GSAKRYLFGEDPP [R6Y]` is recorded as 0.818.
For `GSAKPRLFGEDPP [R5P]`, “normalised enrichment score” read 0.996.
`GSAGRRLFGEDPP [K4G]`: “normalised enrichment score” 0.226.
`GSAKRRKFGEDPP [L7K]` — result for “normalised enrichment score”: 1.46.
`GSAKRRLFNEDPP [G9N]` — result for “normalised enrichment score”: 2.58.
`GSAKRRLFGQDPP [E10Q]` — result for “normalised enrichment score”: 0.291.
`GSAKRRLFGWDPP [E10W]`: “normalised enrichment score” 0.514.
`GSAKRRLFGADPP [E10A]` — result for “normalised enrichment score”: 0.964.
For `GSALRRLFGEDPP [K4L]`, “normalised enrichment score” read -0.333.
Under “normalised enrichment score”, `GSAKRRLFDEDPP [G9D]` is recorded as 2.73.
`GSQKRRLFGEDPP [A3Q]` — result for “normalised enrichment score”: 0.185.
`NSAKRRLFGEDPP [G1N]` — result for “normalised enrichment score”: 1.61.
`GSAKRRLEGEDPP [F8E]` — result for “normalised enrichment score”: 0.668.
For `QSAKRRLFGEDPP [G1Q]`, “normalised enrichment score” read 1.91.
Under “normalised enrichment score”, `GSAKRRLFGEDYP [P12Y]` is recorded as 1.93.
For `GSAKRRLFGEDPM [P13M]`, “normalised enrichment score” read 1.23.
Under “normalised enrichment score”, `GSAKRRLFGNDPP [E10N]` is recorded as 1.21.
For `GSAKRRVFGEDPP [L7V]`, “normalised enrichment score” read 1.03.
For `GSAKSRLFGEDPP [R5S]`, “normalised enrichment score” read 0.684.
For `GSAKRRPFGEDPP [L7P]`, “normalised enrichment score” read 0.228.
`GEAKRRLFGEDPP [S2E]`: “normalised enrichment score” 0.912.

Series 2
Target: RING finger protein unkempt homolog, zinc fingers 1-6, GST-SBP tag (UNK, Homo sapiens, UniProt Q9C0B0, residues 30-357)
Chain of UniProt Q9C0B0 (30-357, looked up): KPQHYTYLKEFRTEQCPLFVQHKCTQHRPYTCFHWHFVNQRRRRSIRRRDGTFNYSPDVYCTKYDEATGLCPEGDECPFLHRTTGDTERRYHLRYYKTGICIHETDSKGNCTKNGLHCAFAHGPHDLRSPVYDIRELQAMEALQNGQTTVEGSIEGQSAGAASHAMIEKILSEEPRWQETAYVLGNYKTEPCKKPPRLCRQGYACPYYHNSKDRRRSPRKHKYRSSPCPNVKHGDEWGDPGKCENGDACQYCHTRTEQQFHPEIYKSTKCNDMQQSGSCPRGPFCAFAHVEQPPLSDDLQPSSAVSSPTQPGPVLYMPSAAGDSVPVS
Technique: RNA Bind-n-Seq
Form: RNA
Matrix: in vitro
Concentration: not given
Notes: RNA with constant flanks, human and mouse sites, ends assumed
Relative to: input RNA pool
Reading: higher = stronger binding
`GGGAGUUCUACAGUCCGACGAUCAAUAAUUCCCUAAUGCUUGAUAAAAUCAUUGGUGAAAAAAGGAGGCGAAUACAGAUCACAAUAUUAUCAUACCACUCUUCAAUUGGAGUAAGAAAAGAUGAACUAGUUCAUGGGUAUAUACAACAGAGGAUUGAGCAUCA` gave a bound/input enrichment of 0.18 ratio.
With `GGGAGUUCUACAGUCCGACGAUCGUUUAUCAGCCUUCAGUUGAAACAUACAAUCAGCUGUUGCAUCUUGCUUCUGAGCAAGGUAGUUUUGAUGGUGGGGACCAAGGCAUACUGAACACAUUUUUUAGCAGCUGGGCAACAACACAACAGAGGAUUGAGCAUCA` the bound/input enrichment was 0.559 ratio.
With `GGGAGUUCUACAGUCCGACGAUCCCAGCUACAACCGUGGUCAGAACUUUGAAUGACAGAAGUAGUAUUGUAAUGGGAGAACCUAUUUCACAGUCAUCAUCUAAUUCUCAGUGAUUUUUUUUUUUAAAGAGAAUUCUAGAAUUCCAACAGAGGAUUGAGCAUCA` the bound/input enrichment was 0.29 ratio.
The bound/input enrichment of `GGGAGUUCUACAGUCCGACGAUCCAAAUUCUUCCUUCUUUUCUUGGCUUACUCUCUGCUGUACUGCCUUUUCAUUGCUGCUACCGAUUUACAGUAUUUUAUCAGAUUUUGGACAAAUGGUCUGCCUGAUACUCAAGCCAAGUUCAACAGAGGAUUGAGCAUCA` is reported as 0.604 ratio.
For `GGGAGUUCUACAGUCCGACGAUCGCAGGCGGCAUCUAAAGCAGCUUCUAAACAGAGAGAGAUGCUCAUGGAAGAUGUGGGCAGUGAGGAAGAACAAGAAGAGGAGGAUGAGGCACCAUUCCAGGAGAAAGAUUCCGGCAGCGACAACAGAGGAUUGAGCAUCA`, the bound/input enrichment was 0.187 ratio.
`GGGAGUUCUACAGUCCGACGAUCGAAAGUGGAAAGCCUUUCCAGUGUCCAAUAUGUGGUUUGGUUAUUAAAAGGAAGAGUUACUGGAAGCGGCACAUGGUGAUUCACACAGGUUUAAAAAGUCAUCAGUGUCCGCUCUGUCCACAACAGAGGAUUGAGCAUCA` has a bound/input enrichment of 0.152 ratio.
For `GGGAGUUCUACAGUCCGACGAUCCAGAAAGCUUGACCAAGUUACAUAUUCUAGAGAAUGUCCCGAGUGCCAAGCACGUUUAUACAUAGGGCGUGUAUUCCAGUCUUUUCUGUCAUUCUGUGUGUGUGUGUGUGUACGUAUGUGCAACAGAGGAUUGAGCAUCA`, the bound/input enrichment was 0.262 ratio.
For `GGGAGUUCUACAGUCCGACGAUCGUGGUUGGGGUGUGAGUGGGCGUUUUCUUAAUGAUAUGCUGCUAGGAUUUCAUGGGCAGCAAUAGCCUAGAAGUCUAUGAUCUAGACUCCAGAUUCCAGAGGGACCUUAAGGUUCCCUUCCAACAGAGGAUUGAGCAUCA`, the bound/input enrichment was 0.249 ratio.
The bound/input enrichment of `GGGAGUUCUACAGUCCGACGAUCGCACUCUGAACUGCCGUAAACUGUAUAGCUUACUCAAACAUCUAAAGCUCUGCCACAGCAGGUUCAUCUUCAAUUACGUAUAUCAUCCAAAAGGUGCUAGGAUAGAUGUUUCAAUCAAUGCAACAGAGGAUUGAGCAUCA` is reported as 0.95 ratio.
`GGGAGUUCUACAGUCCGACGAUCUUUCCUCACAAAUGUGAAGUCUGUGAUAAAGGUUUUCAUCGUCCUUCAGAGCUUAAAAAACAUAGUGAUAUUCAUAAGGGUAGGAAGAUUCACCAGUGUAGGCAUUGUGACUUUAAAACCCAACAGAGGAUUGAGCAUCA` has a bound/input enrichment of 0.686 ratio.
With `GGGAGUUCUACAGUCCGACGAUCGCAUCUUCUAAUACUGACAUGACUUAUGGAGGGCUGGCAUCACCAAAGCUAGAUGUUUCAUAUGAACCAAUGAUAGUGAAGGAAGCUCGAUAUAUUGCCAUAACAAUGAUGAAGGUUUAUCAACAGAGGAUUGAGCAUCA` the bound/input enrichment was 0.276 ratio.

Series 3
Target: Ras GTPase-activating protein-binding protein 1, full length (G3BP1, Homo sapiens, UniProt Q13283)
Chain of UniProt Q13283 (whole entry, looked up): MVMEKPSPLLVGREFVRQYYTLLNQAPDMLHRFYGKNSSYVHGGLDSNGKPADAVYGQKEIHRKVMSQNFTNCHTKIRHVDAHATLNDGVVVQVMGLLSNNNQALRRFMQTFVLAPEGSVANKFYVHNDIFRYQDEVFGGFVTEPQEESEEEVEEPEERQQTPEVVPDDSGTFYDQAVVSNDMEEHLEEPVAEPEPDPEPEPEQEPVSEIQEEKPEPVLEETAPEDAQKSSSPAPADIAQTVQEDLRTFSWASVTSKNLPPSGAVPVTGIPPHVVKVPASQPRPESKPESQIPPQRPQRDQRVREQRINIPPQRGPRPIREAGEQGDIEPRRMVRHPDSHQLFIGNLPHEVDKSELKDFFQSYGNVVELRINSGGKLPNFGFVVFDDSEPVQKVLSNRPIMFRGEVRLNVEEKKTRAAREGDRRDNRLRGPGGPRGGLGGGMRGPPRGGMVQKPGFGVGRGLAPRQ
Technique: RNA Bind-n-Seq
Form: RNA
Matrix: in vitro
Concentration: 200 nM
Notes: whole 134-nt RNA, ends assumed
With: 150 mM LiCl
Relative to: input library
Reading: higher = stronger binding
Library: 7-deaza-guanosine replaces G
The log2 enrichment of `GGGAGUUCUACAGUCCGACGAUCUCCUCAAGUCCUGUGCUACACAUCGUAUGUACCGAAUCGGCGGGGCGGCGGGAAAGUAUUAUGUUACGCCGUUCGGAUCUGCACUUCCAGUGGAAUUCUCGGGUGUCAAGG` is reported as 1.14.
With `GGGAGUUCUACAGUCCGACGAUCCCUGUGCUACACAUCGUAUGUACCGAAUCGGGGUUUUUUUGGUUUUUUUGGUUUUUUUGGAAAGUAUUAUGUUACGCCGUUCGGAUCUGCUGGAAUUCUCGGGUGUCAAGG` the log2 enrichment was 1.03.
For `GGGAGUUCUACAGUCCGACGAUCAAGUCCUGUGCUACACAUCGUAUGUACCGAAUCAAACCCCCAAAUUUAAACCCAAAAAAGUAUUAUGUUACGCCGUUCGGAUCUGCACUUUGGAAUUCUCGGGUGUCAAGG`, the log2 enrichment was 1.56.
`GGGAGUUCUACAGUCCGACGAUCCCUGUGCUACACAUCGUAUGUACCGAAUCGGGAAAAAAAGGAAAAAAAGGAAAAAAAGGGAAAGUAUUAUGUUACGCCGUUCGGAUCUGCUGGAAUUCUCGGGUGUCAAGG` gave a log2 enrichment of 0.00427.
`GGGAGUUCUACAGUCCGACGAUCACCAUGCAGGUGGGCAUCUUUGGGAAGUGGGGCAAGGGGGGGAUAGGGAGGGGGGUAACACUUUGGGAACAGGUGGUCCCAGGUCCUUUCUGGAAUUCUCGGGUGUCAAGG` gave a log2 enrichment of -0.292.
For `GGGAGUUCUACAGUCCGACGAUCUAACUUUAGAGGAGGCUCUGAUGGAUAUGGCAGUGGACGUGGAUUUGGGGAUGGCUAUAAUGGGUAUGGAGGAGGACCUGGAGGUGGCAAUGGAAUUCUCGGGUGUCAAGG`, the log2 enrichment was -0.283.
With `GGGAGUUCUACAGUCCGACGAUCCAAGUCCUGUGCUACACAUCGUAUGUACCGAAUCGGGUUUGGGUUUGGGAAAGGGAAAGUAUUAUGUUACGCCGUUCGGAUCUGCACUUCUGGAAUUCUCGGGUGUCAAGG` the log2 enrichment was -0.603.
`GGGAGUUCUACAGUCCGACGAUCGAAAUCCACAGGAAAGUGAUGUCACAAAACUUCACCAACUGCCACACCAAGAUUCGCCAUGUUGAUGCUCAUGCCACGCUAAAUGAUGGUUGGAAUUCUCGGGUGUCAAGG` gave a log2 enrichment of 0.653.
`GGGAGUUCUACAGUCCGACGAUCCACAGACAACACGCACCCACACAGACACAGAGGGAAGGGGUUGGGAUGGGGACAGGGUGCACGGCAGGGCGGGGUAGGACCCCAGCCCCUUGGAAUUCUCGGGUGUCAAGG` has a log2 enrichment of -0.293.
For `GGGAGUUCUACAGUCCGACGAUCUUACACAAACCUGCAGGUGAAGACAGGCCAGCGGACCCUCAUCAACCCCAAGCCCUGUGGCCAGUUUUGCUGCUGUGAAGUGCUGGGCUGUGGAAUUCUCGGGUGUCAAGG`, the log2 enrichment was 0.107.
The log2 enrichment of `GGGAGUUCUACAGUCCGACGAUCGUCCUGUGCUACACAUCGUAUGUACCGAAUCGGGGUGGGGUUUUUGGGGUUUUUGGGGAAAGUAUUAUGUUACGCCGUUCGGAUCUGCACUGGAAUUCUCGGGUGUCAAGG` is reported as 0.459.

Series 4
Target: ABI1, truncated, D143A, DHFR fusion (Arabidopsis thaliana)
Technique: DHFR PCA, deep sequencing
Matrix: yeast
Notes: methotrexate growth selection, single substitutions
With: (+)-ABA 200 µM
Relative to: wild-type fitted maximum
Reading: higher = stronger binding
Starting sequence: PYL1, truncated, DHFR fusion (Arabidopsis thaliana); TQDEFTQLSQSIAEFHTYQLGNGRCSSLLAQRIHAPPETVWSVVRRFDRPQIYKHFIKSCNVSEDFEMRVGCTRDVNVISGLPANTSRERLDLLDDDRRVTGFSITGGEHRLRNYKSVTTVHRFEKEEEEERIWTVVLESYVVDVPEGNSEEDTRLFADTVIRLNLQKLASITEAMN
`T135E` — result for “relative binding score”: -3.78%.
Under “relative binding score”, `L156I` is recorded as 94.2%.
Under “relative binding score”, `K58T` is recorded as 92.3%.
Under “relative binding score”, `I133V` is recorded as 115%.
`Q19L`: “relative binding score” 89.7%.
`N165W`: “relative binding score” -1.06%.
Under “relative binding score”, `E151L` is recorded as 93%.
Under “relative binding score”, `E127F` is recorded as 97.3%.
`D3R`: “relative binding score” 94.9%.
`D75W`: “relative binding score” 105%.
For `T135A`, “relative binding score” read 85.5%.
`D75Q`: “relative binding score” 108%.
Under “relative binding score”, `T160R` is recorded as 79.8%.
`T39S` — result for “relative binding score”: 93.1%.
`C72N` — result for “relative binding score”: 94.8%.
`V78R`: “relative binding score” 11.9%.
`L91V` — result for “relative binding score”: 19.6%.
`N149L`: “relative binding score” 35.3%.
Under “relative binding score”, `N85P` is recorded as 63.6%.
For `K54G`, “relative binding score” read -0.313%.
For `D144C`, “relative binding score” read 73%.
Under “relative binding score”, `T120V` is recorded as -4.9%.
Under “relative binding score”, `T160F` is recorded as 98.9%.
Under “relative binding score”, `R45C` is recorded as 61.7%.
For `I105A`, “relative binding score” read 57.4%.

For quick reference, copied from above (series 1):
`GSAGRRLFGEDPP [K4G]`: “normalised enrichment score” 0.226.
`GSAKRRKFGEDPP [L7K]` — result for “normalised enrichment score”: 1.46.
`GSAKRRLFNEDPP [G9N]` — result for “normalised enrichment score”: 2.58.
`GSAKRRLFGQDPP [E10Q]` — result for “normalised enrichment score”: 0.291.
`GSAKRRLFGWDPP [E10W]`: “normalised enrichment score” 0.514.
`GSAKRRLFGADPP [E10A]` — result for “normalised enrichment score”: 0.964.
